Experimental data collected from several papers.
Compare with care: the assays were run in different laboratories. Numbers after ± are the reported error.

SMILES	test	test system	conditions	scale	measurement	result
CC(C)NCCCn1c(Sc2cc3c(cc2I)OCO3)nc2c(N)ncnc21	LC-MS/MS	mouse, MDA-MB-468 xenograft, tumour	5 mg/kg 3 times weekly, 24 h post Wednesday dose	–	tumour concentration	0.52 ± 0.13 µM
CC(C)C[C@@H](NC(=O)[C@@H](CCCNC(=N)N)NC(=O)[C@@H](Cc1c[nH]cn1)NC(=O)[C@@H](Cc1c[nH]c2ccccc12)NC(=O)[C@@H](Cc1c[nH]cn1)NC(=O)[C@@H](Cc1ccccc1)NC(=O)[C@H](NC(=O)[C@@H](Cc1ccc(O)cc1)NC(=O)CNC(=O)CNC(=O)CCOCCOCCOCCNC(=O)CN1CCN(CC(=O)O)CCN(CC(=O)O)CC1)[C@H](C)O)C(=O)N[C@H](CC(N)=O)C(=O)N1CCC[C@@H]1C(=O)O [gallium-68 labelled]	–	male C57BL/6 mice	intravenous, 1.85 MBq, 60 min, with: GP12 blocking	relative to: tumour over heart	tumour-to-tissue ratio	1.09 ± 0.41
CCn1ccc(-c2cc(-c3cnn(C)c3)cc([C@@H](C)NC(=O)c3cc(OCCN(C)C)ccc3C)c2)n1	–	C57BL/6J mice, male, plasma	oral, 50 mg/kg	–	AUC(0-t)	22800 ng·h/mL
CCCC[C@@H]1NC(=O)[C@H](Cc2ccc(O)cc2)NC(=O)[C@@H]2CCCN2C(=O)[C@H](CC(=O)O)NC(=O)[C@H](C)NC(=O)[C@H](Cc2ccccc2)NC(=O)[C@@H]2CSCCC(=O)N3CN(CN(C3)C(=O)CCSC[C@@H](C(=O)N[C@@H](C)C(N)=O)NC1=O)C(=O)CCSC[C@H](NC(C)=O)C(=O)N[C@@H](CC(C)(C)C)C(=O)N1CCC[C@H]1C(=O)N[C@@H](CCC(=O)O)C(=O)N[C@H](CCCCNC(=O)CCc1cn(CCOCCOCCOCCN(CCOCCOCCOCCC(=O)N[C@H]3CSCCC(=O)N4CN5CN(C4)C(=O)CCSC[C@H](NC(=O)[C@@H](CC(=O)O)NC(=O)[C@H](Cc4cccc6ccccc46)NC(=O)[C@@H]4CCCN4C3=O)C(=O)N[C@@H](CCSC)C(=O)N[C@@H](CCCCNC(=N)N)C(=O)N[C@@H](CC(=O)O)C(=O)N[C@@H](Cc3c[nH]c4ccccc34)C(=O)N[C@@H](CO)C(=O)N[C@@H]([C@@H](C)O)C(=O)N3CCC[C@H]3C(=O)N3C[C@H](O)C[C@H]3C(=O)N[C@@H](Cc3c[nH]c4ccccc34)C(=O)N[C@H](C(N)=O)CSCCC5=O)CCOCCOCCOCCn3cc(CCC(=O)NCCCC[C@H]4NC(=O)[C@H](CCC(=O)O)NC(=O)[C@@H]5CCCN5C(=O)[C@H](CC(C)(C)C)NC(=O)[C@@H](NC(C)=O)CSCCC(=O)N5CN6CN(C5)C(=O)CCSC[C@H](NC(=O)[C@H](Cc5ccc(O)cc5)NC(=O)[C@@H]5CCCN5C4=O)C(=O)N[C@@H](Cc4ccccc4)C(=O)N[C@@H](C)C(=O)N[C@@H](CC(=O)O)C(=O)N4CCC[C@H]4C(=O)N[C@@H](Cc4ccc(O)cc4)C(=O)N[C@@H](CCCC)C(=O)N[C@H](C(=O)N[C@@H](C)C(N)=O)CSCCC6=O)nn3)nn1)C(=O)N1CCC[C@H]1C(=O)N[C@@H](Cc1ccc(O)cc1)C(=O)N2	–	Sprague-Dawley rat	–	–	CL	8.5 ± 1.5 mL/min/kg
CC[C@H](C)[C@H](NC(=O)CNC(=O)[C@H](CCSC)NC(=O)[C@H](CCC(N)=O)NC(=O)[C@H](C)NC(=O)[C@H](CCC(N)=O)NC(=O)[C@@H](NC(=O)[C@H](CC(C)C)NC(=O)[C@H](C)NC(=O)[C@H](CO)NC(=O)[C@H](CCSC)NC(=O)[C@H](CCC(=O)O)NC(=O)[C@H](CC(C)C)NC(=O)[C@H](Cc1ccc(O)cc1)NC(=O)[C@H](CO)NC(=O)[C@H](CCC(=O)O)NC(=O)[C@H](CCC(N)=O)NC(=O)[C@H](CCCNC(=N)N)NC(=O)[C@H](CCCCN)NC(=O)[C@H](CC(=O)O)NC(=O)[C@H](CC(C)C)NC(=O)[C@H](CC(N)=O)NC(=O)[C@H](Cc1ccccc1)NC(=O)[C@H](CCC(=O)O)NC(=O)[C@H](CCCCN)NC(=O)[C@@H](NC(=O)[C@H](CC(C)C)NC(=O)[C@H](CCC(=O)O)NC(=O)[C@H](CCC(=O)O)NC(=O)[C@@H](NC(=O)[C@@H](NC(=O)[C@H](CCCNC(=N)N)NC(=O)[C@H](CCCCN)NC(=O)[C@H](C)NC(=O)[C@H](Cc1ccccc1)NC(=O)[C@H](CCC(=O)O)NC(=O)[C@H](CCC(=O)O)NC(=O)[C@H](CC(C)C)NC(=O)[C@@H](N)CO)C(C)C)C(C)C)C(C)C)[C@@H](C)CC)C(=O)N[C@@H](CO)C(=O)N[C@@H](CCC(=O)O)C(=O)N[C@@H](CCCNC(=N)N)C(=O)N[C@H](C(=O)N[C@H](C(=O)N[C@@H](CCC(=O)O)C(=O)N[C@H](C(=O)N[C@H](C(=O)N[C@@H](CC(C)C)C(=O)N[C@@H](CCCNC(=N)N)C(=O)N[C@@H](Cc1c[nH]cn1)C(=O)N[C@@H](C)C(=O)N[C@@H](C)C(=O)N[C@@H](CCC(N)=O)C(=O)N[C@H](C(=O)N[C@@H](CC(C)C)C(=O)N[C@@H](CCCCN)C(=O)O)[C@@H](C)O)C(C)C)[C@@H](C)CC)[C@@H](C)CC)[C@@H](C)CC	–	male mouse, plasma	intravenous, 1 mg/kg	–	AUC(0-t)	22800 ng·h/mL
N=C(N)NCCC[C@H](NC(=O)[C@H](CCCNC(=N)N)NC(=O)[C@H](CCCNC(=N)N)NC(=O)[C@H](CCC(N)=O)NC(=O)[C@H](CCCNC(=N)N)NC(=O)[C@H](CCCNC(=N)N)NC(=O)[C@H](CCCCN)NC(=O)[C@H](CCCCN)NC(=O)[C@H](CCCNC(=N)N)NC(=O)CNC(=O)[C@H](Cc1ccc(O)cc1)NC(=O)[C@H](Cc1ccccc1)NC(=O)[C@H](Cc1ccccc1)NC(=O)[C@H](Cc1ccccc1)NC(=O)OCC1c2ccccc2-c2ccccc21)C(=O)O	–	C57BL/6 mice	intraperitoneal, 5 mg/kg, 0.5 h	direction not given	health score	5
CC1(C)C(=O)N(c2ccc(C#N)c(C(F)(F)F)c2)C(=S)N1c1ccc(C(N)=O)c(F)c1	–	human, male, plasma	oral, 160 mg, single dose, after high-fat meal	–	Tmax	233 ± 72.9 h
C[C@H](O)[C@@H](NC(=O)[C@H]1CCCN1C(=O)[C@@H](CCCCN)NC(=O)[C@@H](CO)NC(=O)[C@@H](Cc1ccc(O)cc1)NC(=O)[C@@H](CC(N)=O)NC(=O)CCOCCOCCOCCNC(=O)CN1CCN(CC(=O)O)CCN(CC(=O)O)CCN(CC(=O)O)CC1)C(=O)N[C@H](CC(=O)O)C(=O)N[C@H](CCCNC(=N)N)C(=O)N[C@H](CCC(N)=O)C(=O)N[C@H](Cc1ccc(O)cc1)C(=O)N[C@H](Cc1c[nH]cn1)C(=O)N[C@H](Cc1ccccc1)C(N)=O [copper-64 labelled]	–	C57BL/6J mice, thymus	intravenous, 1.85 MBq, 0.6667 h, radiolabelled	–	tissue uptake	0.78 ± 0.47 %ID/g
N#[11C]c1ccc(-c2csc(NN=C3CCCC3)n2)cc1	–	C57BL/6 mouse, male	intravenous, 3 MBq, 15 min	–	uptake in stomach with contents	5.9 ± 0.75 %ID/g
CC[C@H](C)[C@H](NC(=O)[C@H](CCCCN)NC(=O)CNC(=O)[C@H](CC(C)C)NC(=O)[C@H](Cc1ccccc1)NC(=O)[C@H](CCCCN)NC(=O)[C@H](CO)NC(=O)[C@H](Cc1ccccc1)NC(=O)[C@H](Cc1c[nH]c2ccccc12)NC(=O)[C@H](CCC(N)=O)NC(=O)[C@@H](NC(=O)[C@H](Cc1ccccc1)NC(=O)CCCCCNC(=O)CN1CCN(CC(=O)O)CCN(CC(=O)O)CCN(CC(=O)O)CC1)C(C)C)C(=O)N[C@@H](CCC(=O)O)C(=O)N1CCC[C@H]1C(=O)N[C@@H](CC(=O)O)C(=O)N[C@H](C(=O)N[C@@H](CO)C(=O)N[C@@H](CCC(N)=O)C(=O)N[C@H](C(=O)N[C@@H](CCC(N)=O)C(=O)N[C@@H](CC(=O)O)C(=O)N1CCC[C@H]1C(=O)N[C@@H](CC(N)=O)C(=O)N[C@@H](CC(=O)O)C(=O)N[C@@H](CCC(N)=O)C(=O)N[C@@H](Cc1ccc(O)cc1)C(=O)N[C@@H](CCC(=O)O)C(=O)N1CCC[C@H]1C(=O)N[C@@H](Cc1ccccc1)C(=O)O)C(C)C)C(C)C [copper-64 labelled]	–	C57BL/6 mice, male, naive, white fat	2 h	–	tissue uptake	0.47 ± 0.1 %ID/g
CCCCCCCCCCCCCCCC(=O)N[C@@H](CCC(=O)NCCOCCOCCC(=O)NCCOCCOCCC(=O)NCCCC[C@H](NC(=O)[C@H](CC(=O)O)NC(=O)[C@H](CC(C)C)NC(=O)[C@H](Cc1ccc(O)cc1)NC(=O)[C@H](CCCCN)NC(=O)[C@H](CO)NC(=O)[C@H](Cc1ccc(O)cc1)NC(=O)[C@H](CC(=O)O)NC(=O)[C@H](CO)NC(=O)[C@@H](NC(=O)[C@H](Cc1ccccc1)NC(=O)[C@@H](NC(=O)CNC(=O)[C@H](CCC(N)=O)NC(=O)[C@@H](CO)NC(=O)[C@@H](N)Cc1c[nH]cn1)[C@@H](C)O)[C@@H](C)O)C(=O)N[C@@H](CCCNC(=N)N)C(=O)N[C@@H](CCCNC(=N)N)C(=O)N[C@@H](C)C(=O)N[C@@H](CCC(N)=O)C(=O)N[C@@H](CC(=O)O)C(=O)N[C@@H](Cc1ccccc1)C(=O)N[C@H](C(=O)N[C@@H](CCC(N)=O)C(=O)N[C@@H](Cc1c[nH]c2ccccc12)C(=O)N[C@@H](CC(C)C)C(=O)N[C@@H](CC(C)C)C(=O)N[C@@H](CC(N)=O)C(=O)N[C@H](C(=O)NCC(=O)NCC(=O)N1CCC[C@H]1C(=O)N[C@@H](CO)C(=O)N[C@@H](CO)C(=O)NCC(=O)N[C@@H](C)C(=O)N1CCC[C@H]1C(=O)N1CCC[C@H]1C(=O)N1CCC[C@H]1C(=O)N[C@@H](CO)C(N)=O)[C@@H](C)O)C(C)C)C(=O)O	measured: ALT	Sprague-Dawley rat, male	subcutaneous, 20 µg/kg once daily, 14 days	–	serum enzyme activity	34.6 ± 6.1 U/L
CSCC[C@H](NC(=O)CNC(=O)[C@H](CCCCN)NC(=O)[C@H](CC(C)C)NC(=O)[C@@H]1CCCN1C(=O)[C@H](CO)NC(=O)[C@H](Cc1c[nH]cn1)NC(=O)[C@H](Cc1c[nH]c2ccccc12)NC(=O)[C@H](CCCNC(=N)N)NC(=O)[C@H](CC(C)C)NC(=O)[C@H](CCCNC(=N)N)NC(=O)[C@H](Cc1c[nH]c2ccccc12)NC(=O)[C@H](CS)NC(=O)CCCCCNC(=O)CN1CCN(CC(=O)O)CCN(CC(=O)O)CCN(CC(=O)O)CC1)C(=O)O [copper-64 labelled]	ex vivo biodistribution	male C57BL/6J mice, stomach	intravenous, 1.85 MBq, 0.5 h, B16-F10 tumour-bearing	–	tissue uptake	6.82 %ID/g
O=C1NC2(CC2)COc2ncc(F)cc2[C@H]2COCCN2c2ccn3ncc1c3n2	–	Sprague-Dawley rat, male, serum	oral, 20 mg/kg/day, end of treatment, 4-week subacute toxicity	–	serum potassium	5.08 ± 1.04 mmol/L

Repeated from above:
SMILES	test	test system	conditions	scale	measurement	result
CC1(C)C(=O)N(c2ccc(C#N)c(C(F)(F)F)c2)C(=S)N1c1ccc(C(N)=O)c(F)c1	–	human, male, plasma	oral, 160 mg, single dose, after high-fat meal	–	Tmax	233 ± 72.9 h
